Measured values of several laboratories.
Every numbered part comes from another study and shows a few of its results, in no order. Values joined by “and” are separate records of one study, mostly repeats; a detail may differ.
UniProt P51812, sequence (whole entry, looked up): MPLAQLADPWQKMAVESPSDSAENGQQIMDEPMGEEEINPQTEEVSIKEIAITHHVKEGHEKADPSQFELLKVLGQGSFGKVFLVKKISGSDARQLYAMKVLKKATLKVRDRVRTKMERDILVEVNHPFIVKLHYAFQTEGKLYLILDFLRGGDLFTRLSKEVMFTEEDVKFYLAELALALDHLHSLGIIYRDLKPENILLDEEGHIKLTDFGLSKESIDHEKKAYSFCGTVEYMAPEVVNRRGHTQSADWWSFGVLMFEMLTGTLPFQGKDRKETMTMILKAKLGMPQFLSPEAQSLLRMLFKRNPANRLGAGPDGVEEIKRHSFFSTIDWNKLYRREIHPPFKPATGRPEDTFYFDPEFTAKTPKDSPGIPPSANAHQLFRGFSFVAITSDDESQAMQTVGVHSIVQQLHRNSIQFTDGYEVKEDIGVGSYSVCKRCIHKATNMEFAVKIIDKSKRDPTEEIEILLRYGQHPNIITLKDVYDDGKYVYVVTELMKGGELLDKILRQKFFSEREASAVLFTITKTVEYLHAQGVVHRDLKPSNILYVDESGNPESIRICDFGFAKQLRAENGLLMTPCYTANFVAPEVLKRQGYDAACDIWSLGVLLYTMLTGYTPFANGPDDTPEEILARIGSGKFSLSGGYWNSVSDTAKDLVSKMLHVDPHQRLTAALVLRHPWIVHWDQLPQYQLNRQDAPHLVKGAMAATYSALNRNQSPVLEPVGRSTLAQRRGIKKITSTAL
UniProt Q9H0K1, sequence (whole entry, looked up): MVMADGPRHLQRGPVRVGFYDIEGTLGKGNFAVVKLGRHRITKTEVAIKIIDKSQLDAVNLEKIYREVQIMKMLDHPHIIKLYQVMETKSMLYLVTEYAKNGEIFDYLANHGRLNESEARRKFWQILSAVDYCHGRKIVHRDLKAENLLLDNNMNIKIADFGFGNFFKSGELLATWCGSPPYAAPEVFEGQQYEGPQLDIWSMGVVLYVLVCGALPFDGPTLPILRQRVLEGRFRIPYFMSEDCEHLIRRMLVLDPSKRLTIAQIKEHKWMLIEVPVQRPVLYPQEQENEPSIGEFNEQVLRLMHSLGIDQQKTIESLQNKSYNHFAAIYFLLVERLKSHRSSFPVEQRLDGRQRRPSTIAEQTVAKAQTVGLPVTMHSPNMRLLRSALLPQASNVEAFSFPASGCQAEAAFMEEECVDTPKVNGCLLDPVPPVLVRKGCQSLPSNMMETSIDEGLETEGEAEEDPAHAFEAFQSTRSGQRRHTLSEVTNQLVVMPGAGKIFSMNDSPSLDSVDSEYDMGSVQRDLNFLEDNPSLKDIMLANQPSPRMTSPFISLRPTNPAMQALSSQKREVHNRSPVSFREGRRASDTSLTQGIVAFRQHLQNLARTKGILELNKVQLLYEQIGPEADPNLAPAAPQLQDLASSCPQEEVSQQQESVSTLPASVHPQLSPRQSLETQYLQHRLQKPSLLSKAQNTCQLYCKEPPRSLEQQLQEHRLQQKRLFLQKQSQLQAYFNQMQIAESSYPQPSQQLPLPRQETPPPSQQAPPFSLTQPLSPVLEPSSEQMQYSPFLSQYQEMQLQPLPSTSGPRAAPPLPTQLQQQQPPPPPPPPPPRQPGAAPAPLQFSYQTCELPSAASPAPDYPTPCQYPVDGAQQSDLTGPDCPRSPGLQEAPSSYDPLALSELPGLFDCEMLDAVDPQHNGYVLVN
UniProt Q8N5S9, sequence (whole entry, looked up): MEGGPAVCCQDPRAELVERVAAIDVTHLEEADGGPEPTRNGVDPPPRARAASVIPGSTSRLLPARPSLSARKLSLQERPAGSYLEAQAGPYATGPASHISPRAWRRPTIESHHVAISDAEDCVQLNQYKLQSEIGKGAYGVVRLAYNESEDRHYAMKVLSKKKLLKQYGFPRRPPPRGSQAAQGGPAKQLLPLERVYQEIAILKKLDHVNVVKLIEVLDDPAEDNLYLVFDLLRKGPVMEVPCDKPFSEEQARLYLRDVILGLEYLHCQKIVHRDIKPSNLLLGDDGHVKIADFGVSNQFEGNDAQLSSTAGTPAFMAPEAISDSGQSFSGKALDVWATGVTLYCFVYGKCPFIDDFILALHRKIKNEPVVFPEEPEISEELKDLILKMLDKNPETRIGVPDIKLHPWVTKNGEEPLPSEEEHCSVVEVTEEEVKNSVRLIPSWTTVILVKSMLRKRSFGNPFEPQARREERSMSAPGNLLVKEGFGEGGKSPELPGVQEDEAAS
UniProt Q9BYT3, sequence (whole entry, looked up): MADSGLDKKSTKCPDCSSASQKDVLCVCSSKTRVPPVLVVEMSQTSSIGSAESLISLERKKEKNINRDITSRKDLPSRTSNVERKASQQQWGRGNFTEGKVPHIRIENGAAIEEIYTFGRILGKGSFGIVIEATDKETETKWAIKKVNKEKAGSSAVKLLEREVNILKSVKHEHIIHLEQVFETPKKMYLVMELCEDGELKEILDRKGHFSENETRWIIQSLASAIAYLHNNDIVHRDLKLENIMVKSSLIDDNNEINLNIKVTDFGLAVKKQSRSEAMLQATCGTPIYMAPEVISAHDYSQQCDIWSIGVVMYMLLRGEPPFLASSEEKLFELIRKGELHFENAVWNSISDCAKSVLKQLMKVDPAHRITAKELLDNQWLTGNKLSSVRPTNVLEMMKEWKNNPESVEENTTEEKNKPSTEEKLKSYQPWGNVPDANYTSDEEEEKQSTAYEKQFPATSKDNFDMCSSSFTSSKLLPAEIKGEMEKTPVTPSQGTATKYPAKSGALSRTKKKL
UniProt O15146, sequence (whole entry, looked up): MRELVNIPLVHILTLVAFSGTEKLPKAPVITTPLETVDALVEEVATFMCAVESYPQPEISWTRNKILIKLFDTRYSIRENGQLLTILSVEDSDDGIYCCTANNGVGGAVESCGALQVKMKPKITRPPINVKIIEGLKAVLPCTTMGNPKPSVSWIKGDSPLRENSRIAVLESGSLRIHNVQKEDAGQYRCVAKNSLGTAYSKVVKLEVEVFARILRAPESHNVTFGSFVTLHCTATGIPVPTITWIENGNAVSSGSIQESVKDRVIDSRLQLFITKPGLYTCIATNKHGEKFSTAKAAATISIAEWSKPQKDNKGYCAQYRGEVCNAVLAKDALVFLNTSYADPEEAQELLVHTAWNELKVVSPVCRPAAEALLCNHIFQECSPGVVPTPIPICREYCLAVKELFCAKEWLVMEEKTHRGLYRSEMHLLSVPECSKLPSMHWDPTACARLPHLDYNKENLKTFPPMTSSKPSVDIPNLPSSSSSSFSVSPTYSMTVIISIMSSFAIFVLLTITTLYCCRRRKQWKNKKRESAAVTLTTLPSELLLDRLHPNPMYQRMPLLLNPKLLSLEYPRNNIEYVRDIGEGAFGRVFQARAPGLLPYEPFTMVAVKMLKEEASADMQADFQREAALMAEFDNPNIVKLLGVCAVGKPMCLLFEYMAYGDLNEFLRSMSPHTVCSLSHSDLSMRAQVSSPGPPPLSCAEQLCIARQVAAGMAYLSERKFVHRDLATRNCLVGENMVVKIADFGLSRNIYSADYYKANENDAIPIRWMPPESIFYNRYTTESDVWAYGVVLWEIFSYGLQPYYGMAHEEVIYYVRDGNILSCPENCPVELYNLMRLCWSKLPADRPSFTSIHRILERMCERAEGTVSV
UniProt P54760, sequence (whole entry, looked up): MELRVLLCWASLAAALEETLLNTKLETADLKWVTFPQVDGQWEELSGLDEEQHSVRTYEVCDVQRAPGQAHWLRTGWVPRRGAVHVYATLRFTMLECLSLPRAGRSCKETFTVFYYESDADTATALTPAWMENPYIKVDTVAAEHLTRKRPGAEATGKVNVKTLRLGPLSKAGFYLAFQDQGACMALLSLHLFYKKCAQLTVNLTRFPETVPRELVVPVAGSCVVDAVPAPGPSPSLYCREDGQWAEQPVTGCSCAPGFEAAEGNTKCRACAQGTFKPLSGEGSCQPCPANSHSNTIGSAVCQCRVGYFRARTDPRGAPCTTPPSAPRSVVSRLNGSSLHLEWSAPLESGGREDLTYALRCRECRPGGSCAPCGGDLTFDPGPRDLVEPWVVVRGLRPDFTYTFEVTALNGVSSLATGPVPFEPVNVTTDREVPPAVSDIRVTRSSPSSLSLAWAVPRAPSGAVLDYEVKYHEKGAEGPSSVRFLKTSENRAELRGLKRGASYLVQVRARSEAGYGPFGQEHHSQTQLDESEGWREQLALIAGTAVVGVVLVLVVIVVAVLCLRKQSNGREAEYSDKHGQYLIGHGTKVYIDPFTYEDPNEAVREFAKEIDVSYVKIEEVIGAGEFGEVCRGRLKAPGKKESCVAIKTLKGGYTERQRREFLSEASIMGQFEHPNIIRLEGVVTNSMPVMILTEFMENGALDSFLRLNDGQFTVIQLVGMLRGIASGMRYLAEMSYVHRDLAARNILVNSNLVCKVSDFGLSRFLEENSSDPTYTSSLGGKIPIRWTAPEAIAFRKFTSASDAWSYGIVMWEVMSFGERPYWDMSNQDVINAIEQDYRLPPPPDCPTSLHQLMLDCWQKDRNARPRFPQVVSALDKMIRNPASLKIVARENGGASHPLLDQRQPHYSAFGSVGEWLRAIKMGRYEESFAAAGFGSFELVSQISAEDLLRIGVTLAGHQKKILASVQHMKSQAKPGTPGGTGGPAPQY
UniProt Q9Y243, sequence (whole entry, looked up): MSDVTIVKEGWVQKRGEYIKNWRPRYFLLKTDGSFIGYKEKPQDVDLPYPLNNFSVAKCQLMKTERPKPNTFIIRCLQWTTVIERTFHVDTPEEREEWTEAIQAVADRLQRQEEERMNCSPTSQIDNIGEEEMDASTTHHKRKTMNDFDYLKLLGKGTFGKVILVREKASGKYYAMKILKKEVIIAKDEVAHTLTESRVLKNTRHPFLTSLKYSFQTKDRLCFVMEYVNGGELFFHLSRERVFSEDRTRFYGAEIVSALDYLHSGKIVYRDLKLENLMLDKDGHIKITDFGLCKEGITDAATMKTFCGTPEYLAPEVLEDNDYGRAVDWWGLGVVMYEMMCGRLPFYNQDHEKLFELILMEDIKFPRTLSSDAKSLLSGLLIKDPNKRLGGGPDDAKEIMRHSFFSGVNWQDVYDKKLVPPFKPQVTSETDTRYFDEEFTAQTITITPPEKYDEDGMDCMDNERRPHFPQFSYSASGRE

Sample 1
Cell line: mouse MPNST tumor cells
Technique: high-content nuclear imaging
Measured: cell number
Tested at: 10 µM
Time: 12 h
Setting: mean of 2 replicates
Baseline: plate mean
Reading: higher = more cells
SMILES	nuclei count
C=CCn1c(=O)n([C@@H]2O[C@H](CO)[C@@H](O)[C@H]2O)c2nc(N)[nH]c(=O)c21	-0.34 z-score
O=C(Nc1ccc(-c2ccncc2)cc1)N[C@H](CO)c1ccccc1	-1.02 z-score
CCCc1nc(C)c2c(=O)nc(-c3cc(S(=O)(=O)N4CCN(CC)CC4)ccc3OCC)[nH]n12	-0.153 z-score
COC(=O)N/N=C/c1c[n+]([O-])c2ccccc2[n+]1[O-]	1.72 z-score
C[C@]12C=CC(=O)C=C1CC[C@@H]1[C@@H]2[C@@H](O)C[C@@]2(C)[C@H]1CC[C@]2(O)C(=O)CO	4.85 z-score and 3.55 z-score
CC(C)NCC(O)c1ccc(O)c(O)c1 (centres unmarked)	0.681 z-score
NC[C@H]1O[C@H](O[C@H]2[C@H](O)[C@@H](O[C@H]3O[C@H](CO)[C@@H](O)[C@H](N)[C@H]3O)[C@H](N)C[C@@H]2N)[C@H](N)C[C@@H]1O	-0.548 z-score
CCCCS(=O)(=O)N[C@@H](Cc1ccc(OCCCCC2CCNCC2)cc1)C(=O)O	1.95 z-score
CCN(CC)CCOC(=O)C(Cc1cccc2ccccc12)CC1CCCO1 (centres unmarked)	1.6 z-score
CC1CCc2c(cc(Br)c(F)c2Br)N1C=O (centres unmarked)	1.42 z-score
CCC(CC)Nc1nc(C)c(-c2ccc(OC(F)(F)F)cc2OC)nc1OC	0.0851 z-score
O=C(NCc1ccco1)c1ccc2c(c1)N(Cc1c(F)cccc1Cl)C(=O)CS2	0.861 z-score
CCC(c1ccc(F)c(F)c1)n1c(C(=O)OC)c(-c2ccno2)[nH]c1=S (centres unmarked)	2.33 z-score
CCCCN1C[C@H](O)[C@@H](O)[C@H](O)[C@H]1CO	-0.214 z-score

Sample 2
SMILES: C[C@H]1CC[C@H](n2c3cnccc3c3cnc(Nc4ccc5c(n4)CCN(C(=O)CO)C5)nc32)CC1
Tested at: 1 µM
target	effect on	technique	remaining binding
CDC42BPA (Homo sapiens, UniProt Q5VT25)	cell-free assay	competition with immobilised ligand	100%
EPHB4 (Homo sapiens, UniProt P54760)	cell-free assay	competition with immobilised ligand	89%
STK3 (Homo sapiens, UniProt Q13188)	binding	–	70%
SIK2 (Homo sapiens, UniProt Q9H0K1)	binding	competition with immobilised ligand	33%
MKNK1 (Homo sapiens, UniProt Q9BUB5)	binding	competition with immobilised ligand	68%
GAK (Homo sapiens, UniProt O14976)	binding	competition with immobilised ligand	2%
STK33 (Homo sapiens, UniProt Q9BYT3)	binding	competition with immobilised ligand	100%
EPHA3 (Homo sapiens, UniProt P29320)	cell-free assay	competition with immobilised ligand	77%
TIE1 (Homo sapiens, UniProt P35590)	cell-free assay	competition with immobilised ligand	89%
CDKL3 (Homo sapiens, UniProt Q8IVW4)	binding	competition with immobilised ligand	100%
ABL1 (Homo sapiens, UniProt P00519, F317L)	–	–	51% and 82%
TAOK2 (Homo sapiens, UniProt Q9UL54)	binding	competition with immobilised ligand	81%
TGFBR2 (Homo sapiens, UniProt P37173)	cell-free assay	competition with immobilised ligand	100%

Sample 3
SMILES: C[C@@H](c1cccc(C#N)c1)n1cc(Cl)cc(C(N)=O)c1=N
Effect on: cell-free assay
Technique: competition with immobilised ligand
Tested at: 1 µM
target	remaining binding
CHEK2 (Homo sapiens, UniProt O96017)	100%
CDK7 (Homo sapiens, UniProt P50613)	81%
FLT3 (Homo sapiens, UniProt P36888, D835V)	95%
EGFR (Homo sapiens, UniProt P00533, T790M)	93%
EGFR (Homo sapiens, UniProt P00533, A750P/del747-749)	88%
Ribosomal protein S6 kinase alpha-3, N-terminal kinase domain (RPS6KA3, Homo sapiens, UniProt P51812)	94%
DDR2 (Homo sapiens, UniProt Q16832)	88%
Tyrosine-protein kinase ABL1, non-phosphorylated (ABL1, Homo sapiens, UniProt P00519, T315I)	85%
SNRK (Homo sapiens, UniProt Q9NRH2)	100%
Tyrosine-protein kinase ABL1, phosphorylated (ABL1, Homo sapiens, UniProt P00519, H396P)	76%
EGFR (Homo sapiens, UniProt P00533, L861Q)	100%
PLK4 (Homo sapiens, UniProt O00444)	100%
MYLK3 (Homo sapiens, UniProt Q32MK0)	98%
AKT3 (Homo sapiens, UniProt Q9Y243)	100%

Sample 4
Structure (SMILES): N#Cc1cnc2cnc(NCc3cccnc3)cc2c1Nc1ccc(F)c(Cl)c1
Effect on: enzyme activity
Action: inhibitor
Tested at: 0.5 µM
Baseline: control
target	remaining activity
PAK1 (Homo sapiens, UniProt Q13153)	95.7%
Cyclin-dependent kinase 2, with cyclin E (CDK2, Homo sapiens, UniProt P24941)	94.1%
TEC (Homo sapiens, UniProt P42680)	118%
JAK1 (Homo sapiens, UniProt P23458)	93.6%
PAK6 (Homo sapiens, UniProt Q9NQU5)	104%
IGF1R (Homo sapiens, UniProt P08069)	93.8%
PRKCQ (Homo sapiens, UniProt Q04759)	113%
EPHA6 (Homo sapiens, UniProt Q9UF33)	76.2%
CLK1 (Homo sapiens, UniProt P49759)	91%
TYRO3 (Homo sapiens, UniProt Q06418)	98%
SIK2 (Homo sapiens, UniProt Q9H0K1)	97.6%
PRKCZ (Homo sapiens, UniProt Q05513)	93.9%
MAP3K20 (Homo sapiens, UniProt Q9NYL2)	106%
SGK2 (Homo sapiens, UniProt Q9HBY8)	98.5%
RPS6KA3 (Homo sapiens, UniProt P51812)	99.1%
MUSK (Homo sapiens, UniProt O15146)	55.6%
FLT1 (Homo sapiens, UniProt P17948)	88%
CSNK1E (Homo sapiens, UniProt P49674)	81.8%
CAMKK1 (Homo sapiens, UniProt Q8N5S9)	105%
EPHA2 (Homo sapiens, UniProt P29317)	102%
SRPK1 (Homo sapiens, UniProt Q96SB4)	102%
CLK2 (Homo sapiens, UniProt P49760)	79.9%
CSNK1D (Homo sapiens, UniProt P48730)	88.4%
CAMK1 (Homo sapiens, UniProt Q14012)	99.1%

Excerpt of the above (sample 3):
target	remaining binding
EGFR (Homo sapiens, UniProt P00533, A750P/del747-749)	88%
CHEK2 (Homo sapiens, UniProt O96017)	100%
Tyrosine-protein kinase ABL1, phosphorylated (ABL1, Homo sapiens, UniProt P00519, H396P)	76%
AKT3 (Homo sapiens, UniProt Q9Y243)	100%
EGFR (Homo sapiens, UniProt P00533, T790M)	93%
MYLK3 (Homo sapiens, UniProt Q32MK0)	98%
SNRK (Homo sapiens, UniProt Q9NRH2)	100%
DDR2 (Homo sapiens, UniProt Q16832)	88%
Tyrosine-protein kinase ABL1, non-phosphorylated (ABL1, Homo sapiens, UniProt P00519, T315I)	85%
PLK4 (Homo sapiens, UniProt O00444)	100%
